Experimental data collected from several papers.
Numbered parts are unrelated; each lists some results of a single study.
Sequence of UniProt P29376 (whole entry, looked up): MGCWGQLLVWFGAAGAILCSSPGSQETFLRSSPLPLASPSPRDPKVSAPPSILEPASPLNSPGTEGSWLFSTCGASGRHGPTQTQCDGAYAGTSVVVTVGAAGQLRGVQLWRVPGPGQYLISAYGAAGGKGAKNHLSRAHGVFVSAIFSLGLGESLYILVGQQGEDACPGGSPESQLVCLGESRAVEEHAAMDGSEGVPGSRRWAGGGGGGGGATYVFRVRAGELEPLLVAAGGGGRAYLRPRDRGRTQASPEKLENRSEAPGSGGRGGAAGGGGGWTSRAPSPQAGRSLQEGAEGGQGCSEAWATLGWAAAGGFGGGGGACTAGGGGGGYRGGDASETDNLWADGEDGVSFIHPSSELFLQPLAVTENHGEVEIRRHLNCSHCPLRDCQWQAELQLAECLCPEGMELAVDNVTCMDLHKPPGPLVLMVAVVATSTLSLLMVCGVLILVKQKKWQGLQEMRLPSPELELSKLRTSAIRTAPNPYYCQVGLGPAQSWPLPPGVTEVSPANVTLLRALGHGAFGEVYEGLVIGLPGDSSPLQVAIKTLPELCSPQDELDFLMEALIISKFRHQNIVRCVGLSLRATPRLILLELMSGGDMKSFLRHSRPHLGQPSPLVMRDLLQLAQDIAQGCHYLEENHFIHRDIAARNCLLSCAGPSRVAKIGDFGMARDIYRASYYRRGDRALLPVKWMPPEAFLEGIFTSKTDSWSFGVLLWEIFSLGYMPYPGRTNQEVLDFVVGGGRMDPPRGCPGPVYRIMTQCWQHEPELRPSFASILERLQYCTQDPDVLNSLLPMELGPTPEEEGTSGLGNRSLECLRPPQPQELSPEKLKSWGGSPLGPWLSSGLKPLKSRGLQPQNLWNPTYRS

Study 1 — technique: PRP chromatography estimate; matrix: 1,9-decadiene/PBS; pH: 7.4; quantity: logD
CC(C)C[C@@H]1NC(=O)[C@@H](C)NC(=O)[C@@H](CC(C)C)NC(=O)[C@@H](C(C)C)NC(=O)[C@H](C)NC(=O)[C@H](CC(C)C)NC(=O)[C@@H](CC(C)C)NC1=O: -0.495
CC(C)C[C@@H]1NC(=O)[C@H](C)NC(=O)[C@@H](CC(C)C)NC(=O)[C@H](C)NC(=O)[C@H](CC(C)C)NC(=O)[C@H](CC(C)C)NC(=O)[C@@H](C(C)C)NC1=O: -0.696
CC(C)C[C@@H]1NC(=O)[C@H](CC(C)C)NC(=O)[C@@H](C(C)C)NC(=O)[C@H](CC(C)C)NC(=O)[C@H](C(C)C)NC(=O)[C@H](Cc2cscn2)NC(=O)[C@H](C)NC1=O: -0.738
CC(C)C[C@@H]1NC(=O)[C@H](C)NC(=O)[C@@H](CC(C)C)NC(=O)[C@H](CC(C)C)NC(=O)[C@H](C(C)C)NC(=O)[C@H](CC(C)C)NC(=O)[C@@H](CC(C)C)NC1=O: 0.643
CC(C)C[C@@H]1NC(=O)[C@H](C)NC(=O)[C@@H](CC(C)C)NC(=O)[C@H](C(C)C)NC(=O)[C@H](CC(C)C)NC(=O)[C@@H](CC(C)C)NC(=O)[C@H](CC(C)C)NC1=O: 0.87
CC(C)C[C@@H]1NC(=O)[C@H](C)NC(=O)[C@H](CCC(=O)N2CCCC2)NC(=O)[C@H](C)NC(=O)[C@H](CC(C)C)NC(=O)[C@H](CC(C)C)NC(=O)[C@@H](C(C)C)NC1=O: -2.66
CC(C)C[C@@H]1NC(=O)[C@H](C)NC(=O)[C@H](C)NC(=O)[C@@H](CC(C)C)NC(=O)[C@H](C(C)C)NC(=O)[C@H](CC(C)C)NC(=O)[C@@H](CC(C)C)NC1=O: -0.673
CC(C)C[C@@H]1NC(=O)[C@H](CC(C)C)NC(=O)[C@@H](CC(C)C)NC(=O)[C@@H](CC(C)C)NC(=O)[C@@H](Cc2cscn2)NC(=O)[C@H](CC(C)C)NC(=O)[C@@H](CC(C)C)NC1=O: 1.62

Study 2 — cell line: mouse MPNST tumor cells; technique: high-content immunofluorescence imaging; item: nuclear SOX9; tested at: 10 µM; time: 12 h; setting: mean of 2 replicates; relative to: DMSO control; reading: higher = more nuclear SOX9; quantity: nuclear SOX9 intensity
C[C@@H]1CN(c2c(F)c(N)c3c(=O)c(C(=O)O)cn(C4CC4)c3c2F)C[C@H](C)N1: 97.1 % of DMSO
O=c1ncn2nc(Sc3ccc(F)cc3F)ccc2c1-c1c(Cl)cccc1Cl: 96 % of DMSO
Cc1[nH]c(/C=C2\C(=O)Nc3ccccc32)c(C)c1CCC(=O)O: 97.1 % of DMSO
C/C=C(/C(=C/C)c1ccc(O)cc1)c1ccc(O)cc1: 105 % of DMSO
CC1(C)O[C@@H]2C[C@H]3[C@@H]4C[C@H](F)C5=CC(=O)C=C[C@]5(C)[C@H]4[C@@H](O)C[C@]3(C)[C@]2(C(=O)CO)O1: 68.3 % of DMSO
C[C@H](CCC(=O)O)[C@H]1CC[C@H]2[C@@H]3[C@H](O)C[C@@H]4C[C@H](O)CC[C@]4(C)[C@H]3CC[C@]12C: 103 % of DMSO
CCN1C(=CC(C)=O)Sc2ccc(O)cc21: 71.6 % of DMSO
COc1ccc(C2CC(c3c(O)cc(C)oc3=O)=NCCS2)c(OC)c1 (stereo not drawn): 227 % of DMSO

Further values, each from its own experiment
CN(C)C[C@H]1CCn2c(c(C3=C(c4cn(C)c5ccccc45)C(=O)NC3=O)c3ccccc32)C1  remaining activity (LTK (Homo sapiens, UniProt P29376); enzyme activity, inhibitor, radiometric; 0.5 µM): 101%
COc1ccc(-c2c(Nc3ccccn3)[nH]c3c(C4=CCCCC4)c(-c4ccccc4)nn3c2=O)cc1  AUC(0-inf), geometric mean (cancer patients, plasma; oral, 200 mg, cycle 0 day -3, single dose): 75200 ng·h/mL
